Experimental data of several laboratories.
Compare with care: the assays were run in different laboratories. ± marks the error that the study gave.
Tln1: Tln1 309-405 (Mus musculus, UniProt P26039)
UniProt P26039, sequence (whole entry, looked up): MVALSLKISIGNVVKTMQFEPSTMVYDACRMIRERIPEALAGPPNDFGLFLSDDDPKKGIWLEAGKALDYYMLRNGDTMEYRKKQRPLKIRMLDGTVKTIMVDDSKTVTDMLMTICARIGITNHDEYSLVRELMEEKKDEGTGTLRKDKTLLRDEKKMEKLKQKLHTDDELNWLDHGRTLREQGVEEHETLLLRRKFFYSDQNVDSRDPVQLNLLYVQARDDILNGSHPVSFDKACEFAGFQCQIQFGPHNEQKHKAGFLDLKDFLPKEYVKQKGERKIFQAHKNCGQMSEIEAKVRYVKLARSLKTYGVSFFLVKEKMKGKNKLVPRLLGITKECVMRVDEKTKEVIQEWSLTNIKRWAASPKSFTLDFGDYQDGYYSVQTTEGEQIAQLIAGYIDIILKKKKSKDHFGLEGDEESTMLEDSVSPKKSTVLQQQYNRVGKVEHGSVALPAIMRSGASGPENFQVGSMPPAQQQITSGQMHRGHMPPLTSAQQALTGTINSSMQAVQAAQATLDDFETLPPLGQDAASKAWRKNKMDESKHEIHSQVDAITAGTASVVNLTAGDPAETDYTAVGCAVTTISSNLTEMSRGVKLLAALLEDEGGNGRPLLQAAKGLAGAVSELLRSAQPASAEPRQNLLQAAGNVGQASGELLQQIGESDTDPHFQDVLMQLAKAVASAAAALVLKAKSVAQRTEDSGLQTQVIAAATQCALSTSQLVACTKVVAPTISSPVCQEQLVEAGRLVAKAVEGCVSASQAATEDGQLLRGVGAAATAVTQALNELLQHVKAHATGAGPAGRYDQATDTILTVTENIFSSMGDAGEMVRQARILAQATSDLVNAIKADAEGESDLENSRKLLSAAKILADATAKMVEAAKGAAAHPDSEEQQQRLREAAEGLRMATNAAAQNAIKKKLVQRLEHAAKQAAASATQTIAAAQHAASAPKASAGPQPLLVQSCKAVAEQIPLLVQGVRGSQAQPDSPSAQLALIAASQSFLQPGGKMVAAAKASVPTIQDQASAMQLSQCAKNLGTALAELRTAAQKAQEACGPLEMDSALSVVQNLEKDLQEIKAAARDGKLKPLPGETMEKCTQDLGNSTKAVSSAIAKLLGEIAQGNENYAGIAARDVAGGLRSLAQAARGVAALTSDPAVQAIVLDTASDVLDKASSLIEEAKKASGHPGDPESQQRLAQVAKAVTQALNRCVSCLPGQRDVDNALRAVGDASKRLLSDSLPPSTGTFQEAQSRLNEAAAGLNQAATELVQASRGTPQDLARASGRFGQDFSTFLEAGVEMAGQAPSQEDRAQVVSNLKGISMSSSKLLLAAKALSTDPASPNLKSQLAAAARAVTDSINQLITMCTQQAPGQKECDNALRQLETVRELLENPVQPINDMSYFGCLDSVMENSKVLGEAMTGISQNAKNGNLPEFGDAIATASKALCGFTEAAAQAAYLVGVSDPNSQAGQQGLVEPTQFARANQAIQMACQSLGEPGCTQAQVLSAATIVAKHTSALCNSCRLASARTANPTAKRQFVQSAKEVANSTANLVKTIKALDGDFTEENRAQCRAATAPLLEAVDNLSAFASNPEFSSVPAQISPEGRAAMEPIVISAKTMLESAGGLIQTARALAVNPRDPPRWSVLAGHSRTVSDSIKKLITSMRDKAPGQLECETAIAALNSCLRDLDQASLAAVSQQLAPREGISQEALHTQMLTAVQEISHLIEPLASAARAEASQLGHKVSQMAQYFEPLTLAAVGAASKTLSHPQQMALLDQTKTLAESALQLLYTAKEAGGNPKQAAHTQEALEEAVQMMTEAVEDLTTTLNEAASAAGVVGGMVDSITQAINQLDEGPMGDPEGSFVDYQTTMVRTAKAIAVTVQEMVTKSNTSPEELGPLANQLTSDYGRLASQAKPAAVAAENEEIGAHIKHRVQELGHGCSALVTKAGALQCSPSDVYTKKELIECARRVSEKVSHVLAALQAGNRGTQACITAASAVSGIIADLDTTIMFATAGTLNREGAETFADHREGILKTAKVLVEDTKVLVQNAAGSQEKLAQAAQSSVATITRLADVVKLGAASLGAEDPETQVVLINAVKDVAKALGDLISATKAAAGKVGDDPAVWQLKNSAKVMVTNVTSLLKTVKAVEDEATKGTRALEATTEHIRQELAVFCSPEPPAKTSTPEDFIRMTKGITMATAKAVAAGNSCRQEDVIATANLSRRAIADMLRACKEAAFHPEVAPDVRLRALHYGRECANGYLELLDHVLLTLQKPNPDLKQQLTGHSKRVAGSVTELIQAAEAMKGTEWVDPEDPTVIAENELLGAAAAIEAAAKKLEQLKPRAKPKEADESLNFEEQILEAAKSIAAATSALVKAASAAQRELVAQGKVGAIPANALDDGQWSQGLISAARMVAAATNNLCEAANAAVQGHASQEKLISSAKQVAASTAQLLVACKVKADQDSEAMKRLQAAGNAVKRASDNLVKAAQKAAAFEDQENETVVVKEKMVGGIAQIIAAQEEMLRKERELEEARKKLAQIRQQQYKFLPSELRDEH
B1: protein (Pseudomonas aeruginosa, UniProt A0A0H2ZK79); sequence looked up; chain MTSIDISNTRQLLERASNDDLEPLVEYILKANTESLSKQVDFKRSHPEHRRYASSILDELRLFGGNSFVNLWRKSGPSYTEVVRDVASKLKVKGAGSMELIELEEAMVQSILRQALEKSSGEDRRELEVILREAGLDKTKMTALLNGSALSGLVVPTVARLILYRTSTVIVNSMAQQLLGHGLRSAVVAGGTFAGGRAVAALAGPVGWVIAGIWTAVDLAGPAYRVTIPCVLQIAMLRLKARAEAATDFMNGAFDG
B2: Lep (Mus musculus, UniProt P41160); sequence looked up; chain VPIQKVQDDTKTLIKTIVTRINDISHTQSVSAKQRVTGLDFIPGLHPILSLSKMDQTLAVYQQVLTSLPSQNVLQIANDLENLRDLLHLLAFSKSCSLPQTSGLQKPESLDGVLEASLYSTEVVALSRLQGSLQDILQQLDVSPEC
B3: GAB1 331-530 (Homo sapiens, UniProt Q13480); sequence looked up; chain TSKLDTIPDIPPPRPPKPHPAHDRSPVETCSIPRTASDTDSSYCIPTAGMSPSRSNTISTVDLNKLRKDASSQDCYDIPRAFPSDRSSSLEGFHNHFKVKNVLTVGSVSSEELDENYVPMNPNSPPRQHSSSFTEPIQEANYVPMTPGTFDFSSFGMQVPPPAHMGFRSSPKTPPRRPVPVADCEPPPVDRNLKPDRKVK
B4: RRP1B 657-758 (Homo sapiens, UniProt Q14684); chain RRAKSSTATHPPGPAVQLNKTPSSSKKVTFGLNRNMTAEFKKTDKSILVSPTGPSRVAFDPEQKPLHGVLKTPTSSPASSPLVAKKPLTTTPRRRPRAMDFF
B5: LLGL2 13-978 (Homo sapiens, UniProt Q6P1M3); phosphorylated serines, Hilyte488 label; chain RERLKRDLFQFNKTVEHGFPHQPSALGYSPSLRILAIGTRSGAIKLYGAPGVEFMGLHQENNAVTQIHLLPGQCQLVTLLDDNSLHLWSLKVKGGASELQEDESFTLRGPPGAAPSATQITVVLPHSSCELLYLGTESGNVFVVQLPAFRALEDRTISSDAVLQRLPEEARHRRVFEMVEALQEHPRDPNQILIGYSRGLVVIWDLQGSRVLYHFLSSQQLENIWWQRDGRLLVSCHSDGSYCQWPVSSEAQQPEPLRSLVPYGPFPCKAITRILWLTTRQGLPFTIFQGGMPRASYGDRHCISVIHDGQQTAFDFTSRVIGFTVLTEADPAATFDDPYALVVLAEEELVVIDLQTAGWPPVQLPYLASLHCSAITCSHHVSNIPLKLWERIIAAGSRQNAHFSTMEWPIDGGTSLTPAPPQRDLLLTGHEDGTVRFWDASGVCLRLLYKLSTVRVFLTDTDPNENFSAQGEDEWPPLRKVGSFDPYSDDPRLGIQKIFLCKYSGYLAVAGTAGQVLVLELNDEAAEQAVEQVEADLLQDQEGYRWKGHERLAARSGPVRFEPGFQPFVLVQCQPPAVVTSLALHSEWRLVAFGTSHGFGLFDHQQRRQVFVKCTLHPSDQLALEGPLSRVKSLKKSLRQSFRRMRRSRVSSRKRHPAGPPGEAQEGSAKAERPGLQNMELAPVQRKIEARSAEDSFTGFVRTLYFADTYLKDSSRHCPSLWAGTNGGTIYAFSLRVPPAERRMDEPVRAEQAKEIQLMHRAPVVGILVLDGHSVPLPEPLEVAHDLSKSPDMQGSHQLLVVSEEQFKVFTLPKVSAKLKLKLTALEGSRVRRVSVAHFGSRRAEDYGEHHLAVLTNLGDIQVVSLPLLKPQVRYSCIRREDVSGIASCVFTKYGQGFYLISPSEFERFSLSTKWLVEPRCLVDSAETKNHRPGNGAGPKKAPSRARNSGTQSDGEEKQPGLVMER
B6: BRAF kinase 448-723 K723G/P722S/S720E/L716E/S713E/Q709R/L706S/A688R/Y673S/N661V/K630S/V600E/L588N/Q562R (Homo sapiens, UniProt P15056); sequence looked up; chain DDWEIPDGQITVGQRIGSGSFGTVYKGKWHGDVAVKMLNVTAPTPQQLQAFKNEVGVLRKTRHVNILLFMGYSTKPQLAIVTQWCEGSSLYHHLHASETKFEMKKLIDIARQTARGMDYLHAKSIIHRDLKSNNIFLHEDNTVKIGDFGLATEKSRWSGSHQFEQLSGSILWMAPEVIRMQDSNPYSFQSDVYAFGIVLYELMTGQLPYSNINVRDQIIFMVGRGSLSPDLSKVRSNCPKRMKRLMAECLKKKRDERPSFPRILAEIEELARELSG
B7: CFH 1108-1231 R1215Q (Homo sapiens, UniProt P08603); sequence looked up; chain KCGPPPPIDNGDITSFPLSVYAPASSVEYQCQNLYQLEGNKRITCRNGQWSEPPKCLHPCVISREIMENYNIALRWTAKQKLYSRTGESVEFVCKRGYRLSSRSHTLQTTCWDGKLEYPTCAKR
B8: Cacna1c 1647-1777 (Mus musculus, UniProt Q01815); sequence looked up; chain NALSLQAGLRTLHDIGPEIRRAISGDLTAEEELDKAMKEAVSAASEDDIFRRAGGLFGNHVTYYQSDSRGNFPQTFATQRPLHINKTGNNQADTESPSHEKLVDSTFTPSSYSSTGSNANINNANNTALGR
B9: CFH domains 1108-1231 V1197A (Homo sapiens, UniProt P08603); sequence looked up; chain KCGPPPPIDNGDITSFPLSVYAPASSVEYQCQNLYQLEGNKRITCRNGQWSEPPKCLHPCVISREIMENYNIALRWTAKQKLYSRTGESAEFVCKRGYRLSSRSHTLRTTCWDGKLEYPTCAKR
UniProt P01024, sequence (whole entry, looked up): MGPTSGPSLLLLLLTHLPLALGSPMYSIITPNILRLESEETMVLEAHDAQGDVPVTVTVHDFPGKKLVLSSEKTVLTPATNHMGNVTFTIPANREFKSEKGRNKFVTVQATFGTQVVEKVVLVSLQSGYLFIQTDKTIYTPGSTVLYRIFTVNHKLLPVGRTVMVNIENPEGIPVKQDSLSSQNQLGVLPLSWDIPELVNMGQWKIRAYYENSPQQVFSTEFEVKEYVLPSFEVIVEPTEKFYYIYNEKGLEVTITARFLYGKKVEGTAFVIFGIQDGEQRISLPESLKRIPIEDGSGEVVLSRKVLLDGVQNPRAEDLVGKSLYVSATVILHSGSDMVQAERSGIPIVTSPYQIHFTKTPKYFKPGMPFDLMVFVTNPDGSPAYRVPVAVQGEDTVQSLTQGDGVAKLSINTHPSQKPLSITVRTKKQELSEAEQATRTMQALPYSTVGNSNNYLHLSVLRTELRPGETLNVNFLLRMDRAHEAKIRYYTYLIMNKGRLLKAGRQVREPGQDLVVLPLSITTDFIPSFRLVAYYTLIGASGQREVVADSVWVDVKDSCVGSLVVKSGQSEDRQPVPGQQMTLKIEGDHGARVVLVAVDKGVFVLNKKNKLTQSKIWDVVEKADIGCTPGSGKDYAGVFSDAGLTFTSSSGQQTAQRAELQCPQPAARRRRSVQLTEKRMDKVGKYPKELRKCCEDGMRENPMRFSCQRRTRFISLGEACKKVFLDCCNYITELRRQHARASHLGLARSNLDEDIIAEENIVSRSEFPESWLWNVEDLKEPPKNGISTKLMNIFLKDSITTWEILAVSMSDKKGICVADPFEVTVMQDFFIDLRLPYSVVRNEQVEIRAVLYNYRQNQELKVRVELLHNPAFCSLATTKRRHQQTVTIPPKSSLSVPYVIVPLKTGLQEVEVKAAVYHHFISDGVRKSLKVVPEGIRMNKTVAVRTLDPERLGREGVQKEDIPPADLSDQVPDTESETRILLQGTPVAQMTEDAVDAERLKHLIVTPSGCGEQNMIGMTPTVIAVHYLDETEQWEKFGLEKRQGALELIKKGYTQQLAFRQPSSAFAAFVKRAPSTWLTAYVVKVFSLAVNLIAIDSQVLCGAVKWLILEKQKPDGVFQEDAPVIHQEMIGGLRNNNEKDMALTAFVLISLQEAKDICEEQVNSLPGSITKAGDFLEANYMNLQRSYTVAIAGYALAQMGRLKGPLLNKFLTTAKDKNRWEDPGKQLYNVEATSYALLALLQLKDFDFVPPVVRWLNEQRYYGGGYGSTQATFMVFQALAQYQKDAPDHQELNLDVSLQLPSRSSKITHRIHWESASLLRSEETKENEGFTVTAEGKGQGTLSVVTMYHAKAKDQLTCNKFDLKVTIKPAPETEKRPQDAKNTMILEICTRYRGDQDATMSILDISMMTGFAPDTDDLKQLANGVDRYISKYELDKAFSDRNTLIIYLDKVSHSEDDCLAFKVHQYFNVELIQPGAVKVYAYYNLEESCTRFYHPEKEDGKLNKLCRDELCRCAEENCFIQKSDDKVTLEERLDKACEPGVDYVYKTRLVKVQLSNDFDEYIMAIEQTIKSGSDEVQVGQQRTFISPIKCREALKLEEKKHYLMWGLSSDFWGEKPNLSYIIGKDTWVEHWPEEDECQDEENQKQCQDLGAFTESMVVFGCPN
UniProt P01375, sequence (whole entry, looked up): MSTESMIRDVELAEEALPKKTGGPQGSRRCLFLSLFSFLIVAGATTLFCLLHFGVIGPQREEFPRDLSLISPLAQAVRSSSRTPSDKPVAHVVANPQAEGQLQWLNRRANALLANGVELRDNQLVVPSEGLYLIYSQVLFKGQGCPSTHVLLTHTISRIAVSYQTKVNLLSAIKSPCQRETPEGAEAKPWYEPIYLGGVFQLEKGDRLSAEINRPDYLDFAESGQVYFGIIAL
UniProt P06748, sequence (whole entry, looked up): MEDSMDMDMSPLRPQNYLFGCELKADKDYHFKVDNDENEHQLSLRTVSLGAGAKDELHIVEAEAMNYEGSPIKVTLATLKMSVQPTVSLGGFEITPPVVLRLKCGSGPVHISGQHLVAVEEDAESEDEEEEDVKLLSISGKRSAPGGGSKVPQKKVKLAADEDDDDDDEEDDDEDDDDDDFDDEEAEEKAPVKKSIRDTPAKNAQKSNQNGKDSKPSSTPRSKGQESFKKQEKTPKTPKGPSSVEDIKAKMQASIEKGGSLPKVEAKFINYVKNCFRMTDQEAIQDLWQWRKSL
UniProt P25963, sequence (whole entry, looked up): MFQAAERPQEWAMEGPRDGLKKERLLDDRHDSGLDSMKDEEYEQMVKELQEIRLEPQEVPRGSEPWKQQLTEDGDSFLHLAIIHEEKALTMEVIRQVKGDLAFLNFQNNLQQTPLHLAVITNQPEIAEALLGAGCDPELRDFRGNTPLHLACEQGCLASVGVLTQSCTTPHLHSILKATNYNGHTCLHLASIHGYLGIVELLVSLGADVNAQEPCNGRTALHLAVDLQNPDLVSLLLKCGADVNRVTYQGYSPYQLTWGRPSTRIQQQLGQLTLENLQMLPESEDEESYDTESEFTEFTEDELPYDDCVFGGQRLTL

| Molecule | target or system | assay | test system | conditions | how to read | quantity | result |
| --- | --- | --- | --- | --- | --- | --- | --- |
| B1 (protein) | protein (Pseudomonas aeruginosa, UniProt A0A0H2ZKW0) | SPR | – | – | – | Kd | 31.6 µM |
| LPDTDDRHRIEEKRKRTYETFKSIAKKSPFNGP (Rela 289-321 M313A (Mus musculus, UniProt Q04207); sequence looked up) | NFKBIA 67-206 (Homo sapiens, UniProt P25963) | ITC | peptide | – | – | Kd | 0.97 ± 0.05 µM |
| KLLITIHDRKEFAKFEEEKARAKWDTANNPLYKEATSTFTNITYRGT (ITGB3 742-788 R734K (Homo sapiens, UniProt P05106); sequence looked up) | Tln1 | NMR titration | – | – | – | Kd | 374 µM |
| Peginesatide | UT7/EPO | RT-qPCR, refers to: CISH | – | concentration not given, 90 min, normalized to HPRT1 | baseline: vehicle | mRNA level | 15.9 fold |
| B2 (Lep) | Lepr 22-839 (Mus musculus, UniProt P48356) | SPR | – | – | – | Kd | 4000 µM |
| GSGAGQITKV | human MAGI1-3/6 PDZ construct (MBP fusion) | surface plasmon resonance | peptide | concentration not given | higher = stronger binding | normalised SPR binding response | 22.7 normalised RU |
| RRAQRQRRWEKRTAGVVEKMQQRQDRRR (SURF6 299-326 (Homo sapiens, UniProt O75683); sequence looked up) | NPM1 (Homo sapiens, UniProt P06748) | fluorescence polarisation | peptide | apparent | – | Kd | 15.1 ± 1.7 µM |
| golimumab, partial deamidation, succinimide | TNF (Homo sapiens, UniProt P01375) | SPR | – | – | – | Kd | 3.4e-06 µM |
| SCN2A fragment Y1919A (Homo sapiens) (sequence not shown) | CALM1 (Homo sapiens, UniProt P0DP23) | fluorescence titration | – | with: CaCl2 | – | Kd | 0.173 µM |
| 11-deoxycorticosterone | – | stopped-flow global kinetic fitting | – | 4-state closed model (best), 40-fold adrenodoxin excess, with: substrate binding k3 | – | rate constant | 6.19 min⁻¹ |
| B3 (GAB1 331-530) | GRB2 (Homo sapiens, UniProt P62993) | ITC | – | – | – | Kd | 7.58 µM |
| B4 (RRP1B 657-758) | PPP1CA 7-330 Q20R (Homo sapiens, UniProt P62136) | ITC | – | – | – | Kd | 0.0637 µM |
| FGB dimer (Homo sapiens) | CDH2 extracellular domain 1-551 (Homo sapiens) | SPR | – | Langmuir fit, with: CaCl2 | – | Kd | 0.0124 µM |
| Lama1 fragment (Mus musculus) | DAG1 alpha-dystroglycan (Oryctolagus cuniculus, UniProt Q28685) | ELISA | – | – | – | Kd | 0.034 µM |
| B5 (LLGL2 13-978) | PRKCI/PARD6B 1-596, activation loop phosphorylated | fluorescence polarisation | – | with: AMP-PNP | – | Kd | 0.0396 µM |
| F9 heavy and light chains, activated (UniProt P00740) | F8 activated, A1/A2/A3-C1-C2 D519V/E665V (Homo sapiens) | FXa generation, factor Xa generation rate | – | with: FX | – | Kd | 0.0016 µM |

| Molecule | target or system | assay | test system | conditions | how to read | quantity | result |
| --- | --- | --- | --- | --- | --- | --- | --- |
| PMESGICTIV | human SCRIB PDZ3-4 tandem (MBP fusion) | automated holdup | peptide, crude extract | concentration not given, corrected by standard peak, unit not given | baseline: biotin control resin, higher = stronger binding | binding intensity | 0.113 |
| PYIL (neurotensin C-terminal 160-163 (PYIL)) | SORT1 fragment (Homo sapiens) | SPR | peptide | – | – | Kd | 0.138 µM |
| ENSSEEEFFDAHEGFSDSDE (Pitpnm1 343-362 (Mus musculus, UniProt O35954); sequence looked up) | Vapb 1-125 (Mus musculus, UniProt Q9QY76) | ITC | – | – | – | Kd | 0.92 µM |
| B6 | MAP2K1 (Homo sapiens, UniProt Q02750) | BLI | – | – | – | Kd | 0.5081 ± 0.00416 µM |
| GRGRGRGRGRGRGRGRGRGRGRGRGRGRGRGRGRGRGRGR ((GR)20 20 repeats; TAMRA label N-terminal) | FUS 267-526 (Homo sapiens, UniProt P35637) | fluorescence polarisation | peptide | – | – | Kd | 0.0852 ± 0.0123 µM |
| KLLMIIHDRREFAKFEKEKMNAKWDTGENPIYKSPINNFKNPNYGRKAGL (ITGB1 752-801 Q778G (Homo sapiens, UniProt P05556-5); sequence looked up) | Tln1 | NMR titration | – | – | – | Kd | 193 µM |
| B7 (CFH 1108-1231 R1215Q) | C3 C3dg 955-1303 (Homo sapiens, UniProt P01024) | SPR | – | – | – | Kd | 8 ± 0.1 µM |
| F2 thrombin S195A | PAR-1 residues 16-36 | BLI | – | – | – | Kd | 5.44 ± 1.76 µM |
| GGYMDMSKDESVDYVPML (PDGFRB residues 738-755; pY (two phosphotyrosines)) | PIK3R1 80-724 (Homo sapiens, UniProt P27986) | ITC | peptide | – | – | Kd | 0.66 ± 0.05 µM |
| B8 (Cacna1c 1647-1777) | Jph2 1-440 S165T (Mus musculus, UniProt Q9ET78) | ITC | – | – | – | Kd | 5.05 µM |
| FGA (Homo sapiens, UniProt P02671) | AFAP1L1 (Homo sapiens, UniProt Q8TED9) | cross-linking MS | – | with: DSSO | – | cross-linked residues | K437 to K761 |
| GCVRLHESCLGQQVPCCDPAATCYCSGRGDNDLVCYCR (designed binder) | ITGAV/ITGB3 K562 cells | flow cytometry | designed binder, U87MG | – | – | Kd | 0.00089 µM |
| B9 (CFH domains 1108-1231 V1197A) | C3 996-1303 (Homo sapiens, UniProt P01024) | SPR | – | – | – | Kd | 10.1 ± 0.8 µM |
| colistin | Pseudomonas aeruginosa | – | clinical isolate RKI 93/12 | – | – | MIC | ≤ 1 mg/L |
| CALCOCO1 fragment (Homo sapiens) (sequence not shown) | ARNT PAS-B domain (Homo sapiens) | MST | – | – | – | Kd | 80 µM |
